# Published values collected from several papers.
# Each line is one published result; not all experiments were run side by side. Numbers after ± are the reported error.
# UniProt P04775, sequence (whole entry, unmodified, looked up): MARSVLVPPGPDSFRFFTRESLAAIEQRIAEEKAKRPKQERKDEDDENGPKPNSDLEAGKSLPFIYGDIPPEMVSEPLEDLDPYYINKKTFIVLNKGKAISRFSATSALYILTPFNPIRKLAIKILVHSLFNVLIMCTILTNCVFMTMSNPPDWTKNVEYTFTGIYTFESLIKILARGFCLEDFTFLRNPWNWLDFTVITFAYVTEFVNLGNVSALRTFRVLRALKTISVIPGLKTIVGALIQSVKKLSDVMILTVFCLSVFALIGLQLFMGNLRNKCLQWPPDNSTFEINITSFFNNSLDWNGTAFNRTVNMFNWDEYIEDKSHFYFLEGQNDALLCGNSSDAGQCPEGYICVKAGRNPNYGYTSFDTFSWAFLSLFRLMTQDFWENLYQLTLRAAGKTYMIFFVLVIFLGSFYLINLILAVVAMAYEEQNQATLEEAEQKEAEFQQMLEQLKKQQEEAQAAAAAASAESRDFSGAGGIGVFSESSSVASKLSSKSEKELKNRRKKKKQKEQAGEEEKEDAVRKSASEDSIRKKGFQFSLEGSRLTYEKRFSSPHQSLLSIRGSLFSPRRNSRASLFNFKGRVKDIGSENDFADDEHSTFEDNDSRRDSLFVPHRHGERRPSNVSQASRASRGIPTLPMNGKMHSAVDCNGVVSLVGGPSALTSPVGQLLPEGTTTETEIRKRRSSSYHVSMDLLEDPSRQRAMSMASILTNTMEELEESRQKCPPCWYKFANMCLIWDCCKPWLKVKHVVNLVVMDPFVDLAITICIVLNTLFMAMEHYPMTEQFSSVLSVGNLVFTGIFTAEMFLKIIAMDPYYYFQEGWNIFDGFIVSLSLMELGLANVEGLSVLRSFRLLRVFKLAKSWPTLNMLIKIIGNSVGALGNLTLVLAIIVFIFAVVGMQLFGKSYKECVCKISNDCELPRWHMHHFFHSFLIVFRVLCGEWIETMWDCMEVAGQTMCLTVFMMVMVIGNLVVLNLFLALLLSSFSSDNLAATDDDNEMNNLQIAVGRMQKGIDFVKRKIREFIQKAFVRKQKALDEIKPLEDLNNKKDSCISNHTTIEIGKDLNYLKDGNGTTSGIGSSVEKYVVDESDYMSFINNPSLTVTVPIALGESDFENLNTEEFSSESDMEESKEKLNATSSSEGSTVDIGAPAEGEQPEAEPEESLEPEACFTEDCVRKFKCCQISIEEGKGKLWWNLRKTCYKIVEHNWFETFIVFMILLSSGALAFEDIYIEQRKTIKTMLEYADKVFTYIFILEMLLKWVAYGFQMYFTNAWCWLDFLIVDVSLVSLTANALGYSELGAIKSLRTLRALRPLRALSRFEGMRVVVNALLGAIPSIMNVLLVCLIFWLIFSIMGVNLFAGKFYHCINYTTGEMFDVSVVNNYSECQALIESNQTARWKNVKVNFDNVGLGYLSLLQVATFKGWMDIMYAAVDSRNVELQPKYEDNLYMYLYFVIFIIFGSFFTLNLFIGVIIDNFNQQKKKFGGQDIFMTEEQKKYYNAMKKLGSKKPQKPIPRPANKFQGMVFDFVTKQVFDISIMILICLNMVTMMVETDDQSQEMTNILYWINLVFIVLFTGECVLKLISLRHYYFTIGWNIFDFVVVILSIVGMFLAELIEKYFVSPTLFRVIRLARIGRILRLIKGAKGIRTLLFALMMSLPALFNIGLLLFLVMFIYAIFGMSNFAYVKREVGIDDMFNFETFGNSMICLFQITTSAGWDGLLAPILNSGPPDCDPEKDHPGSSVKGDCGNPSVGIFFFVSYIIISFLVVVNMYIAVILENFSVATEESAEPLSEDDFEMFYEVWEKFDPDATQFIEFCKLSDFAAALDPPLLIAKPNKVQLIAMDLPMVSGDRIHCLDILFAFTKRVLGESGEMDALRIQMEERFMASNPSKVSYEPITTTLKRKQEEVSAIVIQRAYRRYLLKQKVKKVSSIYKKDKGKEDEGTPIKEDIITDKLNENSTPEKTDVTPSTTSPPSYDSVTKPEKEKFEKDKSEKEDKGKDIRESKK
SMILES,target or system,assay,test system,setting,quantity,result
CC[C@H](C)[C@H](NC(=O)[C@H](CCCCN)NC(=O)[C@H](CC(C)C)NC(=O)[C@H](CC(C)C)NC(=O)[C@H](C)NC(=O)CNC(=O)[C@H](CC(C)C)NC(=O)[C@@H](N)Cc1ccccc1)C(=O)NCC(=O)N[C@@H](C)C(=O)N[C@@H](CCCCN)C(=O)N[C@@H](CC(C)C)C(=O)N[C@@H](CC(C)C)C(=O)N1CCC[C@H]1C(=O)N[C@@H](CO)C(=O)N[C@H](C(=O)N[C@H](C(=O)NCC(=O)N[C@@H](CC(C)C)C(=O)N[C@@H](Cc1ccccc1)C(=O)N[C@@H](CCCCN)C(=O)N[C@@H](CCCCN)C(=O)N[C@@H](CCCCN)C(=O)N[C@@H](CCC(N)=O)C(=O)N[C@@H](CCC(N)=O)C(=O)O)C(C)C)C(C)C,HEK293 cells,resazurin,,24 h,CC50,< 6 µM
COP(=O)(OC)Oc1ccc([N+](=O)[O-])cc1,"muscarinic receptors, rat",radioligand displacement,aging cortex membranes,"90 min, 21 °C, with: 1 nM [3H]oxotremorine-M",IC50,0.064 µM
CC(C)C(=O)OC[C@@]1(F)O[C@@H](n2cnc(-c3cnc(N)[nH]c3=O)c2)[C@H](OC(=O)C(C)C)[C@@H]1OC(=O)C(C)C,Zaire ebolavirus,"viral replication, reporter virus",Huh-7,72 h,IC50,86.8 µM
CC[C@H](C)[C@H](NC(=O)[C@H](CC(C)C)NC(=O)CNC(=O)[C@@H]1CCCN1C(=O)[C@H](CC(C)C)NC(=O)[C@H](C)NC(=O)[C@H](CCCCN)NC(=O)CNC(=O)[C@H](CC(C)C)NC(=O)[C@H](CCSC)NC(=O)[C@H](CCCCN)NC(=O)[C@H](C)NC(=O)[C@H](C)NC(=O)[C@H](C)NC(=O)CNC(=O)[C@H](Cc1c[nH]c2ccccc12)NC(=O)[C@@H](N)Cc1ccccc1)C(=O)N[C@@H](CO)C(=O)N[C@@H](CCSC)C(=O)N[C@@H](Cc1ccccc1)C(=O)N[C@@H](CCC(N)=O)C(=O)N[C@@H](CCCCN)C(=O)N[C@@H](CC(N)=O)C(=O)O,HEK293 cells,resazurin,,24 h,CC50,< 6 µM
CC[C@H](C)[C@H](NC(=O)[C@H](CCCCN)NC(C)=O)C(=O)N[C@@H](Cc1ccccc1)C(=O)N[C@@H](CCSC)C(=O)N[C@@H](CCCCN)C(N)=O,"Sodium channel protein type 2 subunit alpha, with beta-1 subunit (Scn2a, Rattus norvegicus, UniProt P04775, F1489Q/N209D)","sodium current, inside-out patch clamp",Xenopus laevis oocytes,"100 µM, F1489Q mutant, voltage 0 mV",blocking rate constant,1390 ± 96 s⁻¹
Nc1ncc(-c2cn([C@@H]3O[C@](F)(CO)[C@@H](O)[C@H]3O)cn2)cn1,Zaire ebolavirus,"viral replication, reporter virus",Huh-7,72 h,IC50,> 100 µM
CCOP(=S)(OCC)Oc1nc(Cl)c(Cl)cc1Cl,ReNcell VM,"intracellular glutathione level, monochlorobimane",,24 h,IC50,8.25 ± 0.25 µM
CC(=O)NC(c1ccc(C)cc1)c1ccc2cccnc2c1O (centres unmarked),MERS-CoV spike VSV pseudovirus,pseudovirus entry,,10 µM,inhibition,51%

# For quick reference, copied from above:
SMILES,target or system,assay,test system,setting,quantity,result
Nc1ncc(-c2cn([C@@H]3O[C@](F)(CO)[C@@H](O)[C@H]3O)cn2)cn1,Zaire ebolavirus,"viral replication, reporter virus",Huh-7,72 h,IC50,> 100 µM
